# Results gathered from unrelated publications.
# Compare with care: the assays were run in different laboratories. Several values in a cell are separate wells, animals, samples, runs or records. Numbers after ± are the reported error.
# CALM1 Ca2+-bound N-lobe: Calmodulin-1, Ca2+-bound N-lobe (CALM1, Homo sapiens, UniProt P0DP23)
# CNR1: Cannabinoid receptor 1 (CNR1, Homo sapiens, UniProt P21554)
# Genome polyprotein NS3 helicase domain: Genome polyprotein, NS3 helicase domain (Hepatitis C virus genotype 1b, UniProt Q9WMX2)
# ESR1: Estrogen receptor (ESR1, Homo sapiens, UniProt P03372)
# WD repeat-containing protein 91 WD40 domain, residues 392–747: WD repeat-containing protein 91, WD40 domain, residues 392–747 (Homo sapiens, UniProt A4D1P6)
# Sequence of UniProt A4D1P6 (whole entry, looked up): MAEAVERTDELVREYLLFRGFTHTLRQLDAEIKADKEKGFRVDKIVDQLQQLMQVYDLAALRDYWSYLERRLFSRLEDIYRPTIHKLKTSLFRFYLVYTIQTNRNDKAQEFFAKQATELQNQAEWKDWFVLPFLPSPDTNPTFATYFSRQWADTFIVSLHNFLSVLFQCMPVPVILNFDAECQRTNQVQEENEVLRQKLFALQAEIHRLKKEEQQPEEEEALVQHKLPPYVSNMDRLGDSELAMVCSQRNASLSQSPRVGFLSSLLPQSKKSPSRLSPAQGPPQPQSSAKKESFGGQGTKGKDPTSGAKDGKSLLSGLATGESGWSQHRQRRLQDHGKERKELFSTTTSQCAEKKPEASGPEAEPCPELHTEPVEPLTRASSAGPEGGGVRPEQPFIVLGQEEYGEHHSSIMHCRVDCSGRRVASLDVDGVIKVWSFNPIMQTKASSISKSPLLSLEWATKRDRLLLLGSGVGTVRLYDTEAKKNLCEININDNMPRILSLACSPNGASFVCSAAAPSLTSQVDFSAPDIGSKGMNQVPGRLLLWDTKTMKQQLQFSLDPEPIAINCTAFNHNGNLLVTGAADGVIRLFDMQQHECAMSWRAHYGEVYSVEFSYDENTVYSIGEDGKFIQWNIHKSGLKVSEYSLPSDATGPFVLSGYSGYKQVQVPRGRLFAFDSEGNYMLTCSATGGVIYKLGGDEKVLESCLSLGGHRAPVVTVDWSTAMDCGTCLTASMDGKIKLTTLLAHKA
# Sequence of UniProt Q9Y6Y8 (whole entry, looked up): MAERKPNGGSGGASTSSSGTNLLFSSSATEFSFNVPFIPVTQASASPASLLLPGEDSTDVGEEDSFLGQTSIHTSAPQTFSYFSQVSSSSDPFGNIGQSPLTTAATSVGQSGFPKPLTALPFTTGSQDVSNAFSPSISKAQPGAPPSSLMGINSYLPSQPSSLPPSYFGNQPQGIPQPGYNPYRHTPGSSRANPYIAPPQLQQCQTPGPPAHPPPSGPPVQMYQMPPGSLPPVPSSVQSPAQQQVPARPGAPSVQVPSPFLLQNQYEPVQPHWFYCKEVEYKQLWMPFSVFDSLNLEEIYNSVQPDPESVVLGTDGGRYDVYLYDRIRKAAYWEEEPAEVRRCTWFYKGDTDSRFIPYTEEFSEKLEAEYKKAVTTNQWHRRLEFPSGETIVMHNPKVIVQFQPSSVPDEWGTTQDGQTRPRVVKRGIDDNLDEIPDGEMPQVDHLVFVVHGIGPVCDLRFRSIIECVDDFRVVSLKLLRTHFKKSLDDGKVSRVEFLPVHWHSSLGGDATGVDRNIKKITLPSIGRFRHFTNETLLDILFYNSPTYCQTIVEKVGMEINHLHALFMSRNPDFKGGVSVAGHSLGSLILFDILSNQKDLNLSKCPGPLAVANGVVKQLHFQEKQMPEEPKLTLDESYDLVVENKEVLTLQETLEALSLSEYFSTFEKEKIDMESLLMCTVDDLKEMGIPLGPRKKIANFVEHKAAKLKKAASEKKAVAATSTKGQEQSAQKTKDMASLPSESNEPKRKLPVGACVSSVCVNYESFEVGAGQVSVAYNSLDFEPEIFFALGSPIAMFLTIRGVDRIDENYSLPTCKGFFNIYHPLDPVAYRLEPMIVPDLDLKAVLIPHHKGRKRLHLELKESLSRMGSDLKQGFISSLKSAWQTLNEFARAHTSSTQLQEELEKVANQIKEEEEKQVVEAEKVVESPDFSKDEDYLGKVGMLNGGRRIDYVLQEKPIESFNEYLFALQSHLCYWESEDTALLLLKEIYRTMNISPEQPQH
# Sequence of UniProt P51575 (whole entry, unmodified, looked up): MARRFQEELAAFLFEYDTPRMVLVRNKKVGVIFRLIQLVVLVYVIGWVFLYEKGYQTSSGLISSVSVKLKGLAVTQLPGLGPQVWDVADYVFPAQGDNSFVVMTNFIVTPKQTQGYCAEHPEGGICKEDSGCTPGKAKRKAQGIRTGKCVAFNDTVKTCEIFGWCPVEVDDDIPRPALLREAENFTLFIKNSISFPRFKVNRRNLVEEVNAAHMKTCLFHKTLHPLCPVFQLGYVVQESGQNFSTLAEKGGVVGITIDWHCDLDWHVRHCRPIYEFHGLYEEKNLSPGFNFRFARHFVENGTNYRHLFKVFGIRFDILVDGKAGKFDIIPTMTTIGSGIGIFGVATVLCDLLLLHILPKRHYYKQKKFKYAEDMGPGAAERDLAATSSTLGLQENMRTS
Compound,target,assay,test system,conditions,how to read,quantity,value
CC[C@H](C)[C@H](NC(=O)[C@H](CCSC)NC(=O)[C@H](CCSC)NC(=O)[C@H](C)NC(=O)[C@H](C)NC(=O)[C@H](Cc1ccc(O)cc1)NC(=O)[C@H](C)NC(=O)[C@H](CCCCN)NC(=O)CNC(=O)[C@@H](NC(=O)[C@@H](NC(=O)[C@H](CCSC)NC(=O)[C@H](Cc1c[nH]cn1)NC(=O)CN)[C@@H](C)O)C(C)C)C(=O)N[C@@H](CCSC)C(=O)N[C@@H](CCC(=O)O)C(=O)N[C@@H](Cc1ccc(O)cc1)C(=O)N[C@@H](Cc1ccc(O)cc1)C(=O)N[C@@H](CCCNC(=N)N)C(=O)N[C@@H](CCC(N)=O)C(=O)N[C@@H](CO)C(=O)N[C@@H](CCCCN)C(=O)N[C@@H](C)C(=O)N[C@@H](CCCCN)C(=O)N[C@@H](CCCCN)C(=O)N[C@@H](CC(C)C)C(=O)N[C@@H](CCC(N)=O)C(=O)N[C@@H](C)C(=O)N[C@@H](CCSC)C(=O)N[C@@H](CCCNC(=N)N)C(=O)O,CALM1 Ca2+-bound N-lobe,"binding, isothermal titration calorimetry",,"N-lobe, CaV2.1 IQ domain, unit not given, with: Ca2+",baseline: wild-type IQ domain,ΔΔG,1.18
Nc1ncnc2c1ncn2[C@@H]1O[C@H](COP(=O)(O)OP(=O)(O)O)[C@@H](O)[C@H]1O,"CKMT1A (Homo sapiens, UniProt P12532, H99A)","substrate, Kinase-Glo luminescence",,"pH 7.0, reverse reaction, H61A mutant, with: second substrate in excess",,Km,33 ± 1 µM
O=C(COP(=O)(O)O)[C@@H](O)[C@H](O)[C@H](O)COP(=O)(O)O,"SEC23-interacting protein (Homo sapiens, UniProt Q9Y6Y8)","thermal proteome profiling, item: SEC23IP",HepG2 cell lysate,"concentration not given, 57 over 37 °C",baseline: compound over control,thermal stability ratio,0.583 and 0.102 and 0.636
CC[C@H](C)[C@H](NC(=O)[C@H](CCCCN)NC(=O)CNC(=O)[C@@H](NC(=O)[C@@H](NC(=O)[C@H](CCSC)NC(=O)[C@H](Cc1c[nH]cn1)NC(=O)CN)[C@@H](C)O)C(C)C)C(=O)N[C@@H](Cc1ccc(O)cc1)C(=O)N[C@@H](C)C(=O)N[C@@H](C)C(=O)N[C@@H](CCSC)C(=O)N[C@@H](CCSC)C(=O)N[C@H](C(=O)N[C@@H](CCSC)C(=O)N[C@@H](CCC(=O)O)C(=O)N[C@@H](Cc1ccc(O)cc1)C(=O)N[C@@H](C)C(=O)N[C@@H](CCCNC(=N)N)C(=O)N[C@@H](CCC(N)=O)C(=O)N[C@@H](CO)C(=O)N[C@@H](CCCCN)C(=O)N[C@@H](C)C(=O)N[C@@H](CCCCN)C(=O)N[C@@H](CCCCN)C(=O)N[C@@H](CC(C)C)C(=O)N[C@@H](CCC(N)=O)C(=O)N[C@@H](C)C(=O)N[C@@H](CCSC)C(=O)N[C@@H](CCCNC(=N)N)C(=O)O)[C@@H](C)CC,CALM1 Ca2+-bound N-lobe,"binding, isothermal titration calorimetry",,"pH 7.4, 15 °C, N-lobe, CaV2.1 IQ domain, with: Ca2+",,stoichiometry,0.88 ± 0.09
COCCOC(=O)NC1CCN(c2ncnc3c2nc(-c2ccccc2Cl)n3-c2ccc(Cl)cc2)CC1,CNR1,"antagonist, FLIPR calcium mobilisation",CHO-K1 expressing CNR1 and Gαq16,with: CP55940,,Ke,6 nM
N[C@@H](CC(=O)O)C(=O)O,Genome polyprotein NS3 helicase domain,"DNA binding, inhibitor",hepatitis C virus,"100 µM, with: Cy5-dT15 DNA",,inhibition,0%
CC1(C)C(/C=C/C=C2/N(CCCc3ccccc3)c3ccc4ccccc4c3C2(C)C)=[N+](CCCc2ccccc2)c2ccc3ccccc3c21.[Br-],"PRMT3 (Homo sapiens, UniProt O60678)","inhibitor, filter binding",,with: R4 peptide substrate,,Hill coefficient,1.98
N#CCCN(C(=O)CCl)c1ccc2c(c1)OCCO2,"14-3-3 protein sigma, with ERα phosphopeptide (SFN, Homo sapiens, UniProt P31947)","binding, fluorescence polarization",,"covalent ligand screen, with: phosphorylated ERalpha peptide",baseline: control,FP signal,94.6%
O=C(O)C1CCCNC1 (stereo not shown),"SLC6A6 (Homo sapiens, UniProt P31641, Y138A)","binding, microscale thermophoresis",,"1 mM, room temperature, with: 50 nM labelled protein",higher = more binding,normalised MST signal,0.882
COc1ccc(-c2oc3c(CC=C(C)C)c(O[C@@H]4O[C@H](CO)[C@@H](O)[C@H](O)[C@H]4O)cc(O)c3c(=O)c2O[C@@H]2O[C@@H](C)[C@H](O)[C@@H](O)[C@H]2O)cc1,ESR1,array formation,PRL-HeLa,,baseline: EC50 ERβ over EC50 ERα,selectivity ratio,2.05
C=CC(=O)N1CCN(c2nc(OC[C@@H]3CCCN3C)nc3c(F)c(-c4nc(N)cc(C)c4C(F)(F)F)c(Cl)cc23)[C@@H](C)C1,"GTPase KRas, GDP-bound (KRAS, Homo sapiens, UniProt P01116, G13D)","binding, surface plasmon resonance",,,,association rate constant,142000 ± 3800 M⁻¹ s⁻¹
Cc1ccc(N2CC(C(N)=O)CC2=O)cc1 (stereo not shown),"SPRY domain-containing SOCS box protein 2, SPRY domain (Homo sapiens, UniProt Q99619)","binding, affinity selection mass spectrometry",,,baseline: other proteins in batch,fold enrichment,1.29
CCCCCCCCCCc1ccc([C@H]2CC[C@H]([N+](C)(C)CCC)CC2)cc1.[I-],"SPHK1 (Homo sapiens, UniProt Q9NYA1)","inhibitor, radiometric flash-plate",cell lysate,with: sphingosine 10 µM,,Ki/Km ratio,3.5
O=C(Nc1ccncc1)c1cc([N+](=O)[O-])ccc1Cl,Genome polyprotein NS3 helicase domain,"DNA binding, inhibitor",hepatitis C virus,"100 µM, with: Cy5-dT15 DNA",,inhibition,0%
N#Cc1cccc2c1CC[C@H]2NC(=O)c1ccc(S(=O)(=O)NCc2ccco2)cc1,"WD repeat-containing protein 91 WD40 domain, residues 392–747","binding, SPR single-concentration screen",,45 µM,,SPR response,24.8 RU and 21.3 RU
Oc1ccc(/C=C/c2cc(O)cc(O)c2)cc1,"O-methyltransferase (Sorghum bicolor, UniProt A0A1B6PFV1)",,,"concentration not given, with: ADN+",,ΔH of binding,-14.4 ± 0.161 kcal/mol
COc1ccc(-c2oc3cc(O)cc(O)c3c(=O)c2O)cc1,ESR1,array formation,PRL-HeLa,,baseline: EC50 ERβ over EC50 ERα,selectivity ratio,1.58
CC(C)[C@H](N)C(=O)O,"N-alpha-acetyltransferase 80 (NAA80, Homo sapiens, UniProt Q93015)","substrate, DTNB",,"2 mM, 30 min, 37 °C, with: acetyl-CoA 500 µM",,product formation,1.58 µM
CCCCCCCCc1ccc(-c2ccc(C(=O)O)cc2)cc1,Genome polyprotein NS3 helicase domain,"DNA binding, inhibitor",hepatitis C virus,"100 µM, with: Cy5-dT15 DNA",,inhibition,0%
N#CC1CCN(C(=O)c2ccc(CNC(=O)OCc3ccccc3)cc2)CC1,"WD repeat-containing protein 91 WD40 domain, residues 392–747",SPR,,45 µM,,binding,-5% and 2%
Nc1ncnc2c1ncn2[C@@H]1O[C@H](COP(=O)(O)CP(=O)(O)OP(=O)(O)O)[C@@H](O)[C@H]1O,"P2X purinoceptor 1 (P2RX1, Homo sapiens, UniProt P51575, L218T)",saturation binding,HEK293,52 nM,,specific binding,2950 CCPM and 3480 CCPM
CNC(=O)c1cc2c(cn1)[nH]c1ccccc12,Genome polyprotein NS3 helicase domain,"DNA binding, inhibitor",hepatitis C virus,"100 µM, with: Cy5-dT15 DNA",,inhibition,0%
Cn1c(=O)c2[nH]cnc2n(C)c1=O,"Glutamate receptor 2 (Homo sapiens, UniProt P42262)","ion current, agonist, SyncroPatch patch clamp",HEK293,30 µM,,activation,2%
O=C1NC(=O)/C(=C/c2ccc(-c3ccc(F)cc3O)o2)S1,Genome polyprotein NS3 helicase domain,"DNA binding, inhibitor",hepatitis C virus,"100 µM, with: Cy5-dT15 DNA",,inhibition,0%
COc1ccc(C(=O)N[C@@H]2CCc3c(C#N)cccc32)cc1,"WD repeat-containing protein 91 WD40 domain, residues 392–747",SPR,,45 µM,,binding,9% and 34%
O=c1nc(SCc2cc(F)cc(C(F)(F)F)c2)nc(SCc2csc3ccc(Cl)cc23)[nH]1,"TOP2A (Homo sapiens, UniProt P11388)",DNA relaxation,,"1.95 µM, replicate 2",,relaxed DNA,95.4%
CCCCSC[C@H]1CN(Cc2c[nH]c3c(N)ncnc23)C[C@@H]1O,"Aminodeoxyfutalosine nucleosidase (Helicobacter pylori, UniProt Q9ZMY2)",,,forward isomerization rate,,k3,0.3 ± 0.03 min⁻¹
CCCC[C@H](NC(=O)[C@H](C)c1c(C)[nH]c2ccc(O)cc12)c1ncc(-c2cc3ccccc3nc2OC)[nH]1,CNR1,,,10 µM,,effect,53%

# Repeated from above:
Compound,target,assay,test system,conditions,how to read,quantity,value
COc1ccc(C(=O)N[C@@H]2CCc3c(C#N)cccc32)cc1,"WD repeat-containing protein 91 WD40 domain, residues 392–747",SPR,,45 µM,,binding,9% and 34%
O=c1nc(SCc2cc(F)cc(C(F)(F)F)c2)nc(SCc2csc3ccc(Cl)cc23)[nH]1,"TOP2A (Homo sapiens, UniProt P11388)",DNA relaxation,,"1.95 µM, replicate 2",,relaxed DNA,95.4%
